Measured values gathered from unrelated publications.
Parts stem from different laboratories: compare values within a part only.

Study 1 — method: protein-binding microarray; form: hairpin DNA; sample: in vitro; concentration: not given; relative to: not given; direction: higher = stronger binding; quantity: median fluorescence
Target: Runt-related transcription factor 3, Runt domain (RUNX3, Homo sapiens, UniProt Q13761, residues 53-186)
Chain of UniProt Q13761 (53-186, looked up): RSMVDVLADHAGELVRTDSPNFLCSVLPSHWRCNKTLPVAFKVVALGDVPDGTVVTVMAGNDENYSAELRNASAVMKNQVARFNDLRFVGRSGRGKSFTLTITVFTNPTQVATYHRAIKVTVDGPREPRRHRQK
Notes: whole hairpin DNA, median over replicate spots
Sequence = GAGGCCCAACCGCAACGGCCTCCTGGCCGTTGCGGTTGGGCCTCACACTC; result = 9100 a.u.
Sequence = GAGGCCTGTTGCGGCTGGCCTCCTGGCCAGCCGCAACAGGCCTCACACTC; result = 5990 a.u.
Sequence = GAGGCCTCGTGCGGTTGGCCTCCTGGCCAACCGCACGAGGCCTCACACTC (5mC at 8 36); result = 6170 a.u.
Sequence = CTCAGTTCTGTGGGCTGGACTCCTGTCCAGCCCACAGAACTGAGACACTC (5mC at 31); result = 3780 a.u.
Sequence = GAGGCCCAACCGCAACAGCCTCCTGGCTGTTGCGGTTGGGCCTCACACTC (5mC at 33); result = 6380 a.u.
Sequence = GAGGCCTGTTGTGCGTGGCCTCCTGGCCACGCACAACAGGCCTCACACTC; result = 4750 a.u.
Sequence = GAGGCCTGTTGTGGCTGGCCTCCTGGCCAGCCACAACAGGCCTCACACTC; result = 4940 a.u.
Sequence = GAGGCCTGTTGCGGTTAGCCTCCTGGCTAACCGCAACAGGCCTCACACTC; result = 11100 a.u.

Study 2 — method: protein binding microarray; form: double-stranded DNA, one strand shown; sample: in vitro; concentration: not given; relative to: not given; direction: higher = stronger binding; quantity: E-score
Target: Histone acetyltransferase KAT6A, winged helix 2, GST fusion (KAT6A, Homo sapiens, UniProt Q92794, residues 85-181)
Notes: 8-mer, flanks averaged, mean of 2 arrays, mostly near background
Construct (chain): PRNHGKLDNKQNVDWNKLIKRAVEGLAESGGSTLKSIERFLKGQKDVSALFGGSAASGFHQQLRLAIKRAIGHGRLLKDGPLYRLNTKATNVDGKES
Sequence = ACGCGCGC; result = 0.268
Sequence = AATCATCC; result = 0.0168
Sequence = ACTAAGTA; result = -0.0961
Sequence = AGCAGGTC; result = -0.0107
Sequence = ATTAAGTG; result = 0.11
Sequence = ACTTACAC; result = -0.157
Sequence = AACGCTTA; result = -0.195
Sequence = GATTATTA; result = -0.0759

Study 3 — method: RNA Bind-n-Seq; form: RNA; sample: in vitro; concentration: 15 pmol; notes: 4-mer, random 30-nt RNA, single round; together with: 3 µM RocA, 2 mM AMP-PNP; relative to: mean of 4-mers; direction: higher = stronger binding; quantity: 4-mer enrichment Z-score
Target: Eukaryotic initiation factor 4A-I (EIF4A1, Homo sapiens, UniProt P60842, residues 1-406, full length assumed)
Chain of UniProt P60842 (whole entry, looked up): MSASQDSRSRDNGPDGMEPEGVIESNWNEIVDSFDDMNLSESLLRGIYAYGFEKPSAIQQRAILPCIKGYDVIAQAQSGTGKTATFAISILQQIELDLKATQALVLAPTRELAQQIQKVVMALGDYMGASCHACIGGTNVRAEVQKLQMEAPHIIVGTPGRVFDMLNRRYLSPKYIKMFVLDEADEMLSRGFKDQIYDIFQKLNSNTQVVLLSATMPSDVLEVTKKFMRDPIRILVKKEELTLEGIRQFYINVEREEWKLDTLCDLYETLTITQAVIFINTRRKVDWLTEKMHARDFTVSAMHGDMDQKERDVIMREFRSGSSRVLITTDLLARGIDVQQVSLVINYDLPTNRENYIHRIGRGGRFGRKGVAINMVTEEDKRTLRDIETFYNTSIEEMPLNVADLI
Sequence = UAGA; result = 0.943
Sequence = UGCA; result = -0.471
Sequence = GCUA; result = -0.219
Sequence = GACU; result = -0.383
Sequence = AAGU; result = 1.37
Sequence = CUGA; result = 0.0368
Sequence = AUCU; result = -0.789
Sequence = GGCG; result = 1.22

Further values, each from its own experiment
Molecule = SSHNHIPGY; target = HLA class I histocompatibility antigen, A alpha chain, allele A*80:01 (Homo sapiens, UniProt P04439); assay = peptide-MHC binding; test system = peptide; setting = concentration not given; quantity = binding; result = inactive

Excerpt of the above (study 1):
Sequence = GAGGCCCAACCGCAACAGCCTCCTGGCTGTTGCGGTTGGGCCTCACACTC (5mC at 33); result = 6380 a.u.
Sequence = GAGGCCTGTTGTGCGTGGCCTCCTGGCCACGCACAACAGGCCTCACACTC; result = 4750 a.u.
Sequence = GAGGCCTGTTGTGGCTGGCCTCCTGGCCAGCCACAACAGGCCTCACACTC; result = 4940 a.u.
